Measurements gathered from unrelated publications.
Parts stem from different laboratories: compare values within a part only.

Study 1 — technique: RNA Bind-n-Seq; molecule type: RNA; matrix: in vitro; tested at: 365 nM; relative to: no-protein control; direction: higher = stronger binding
Target: RNA binding protein fox-1 homolog 2, RRM domain, GST-SBP tag (RBFOX2, Homo sapiens, UniProt O43251-10, residues 100-194)
Notes: natural RNA segment, single round, ends assumed
Residues (chain): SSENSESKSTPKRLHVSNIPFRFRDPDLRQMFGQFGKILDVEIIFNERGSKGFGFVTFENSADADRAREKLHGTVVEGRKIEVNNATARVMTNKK
`GGGAGUUCUACAGUCCGACGAUCCAAUGAAUCCUUCCCGUUUUUCUUUUUAUGCCACACAGUGCAUUGUUUUUUCUACCUGCUUGUCUUAUUUUUAGAAUAAUUUAGAAAAACAAAACAAAGGCUGUUUUUCCUGGAAUUCUCGGGUGCCAA`: “RBNS enrichment (R)” 3.64.
Under “RBNS enrichment (R)”, `GGGAGUUCUACAGUCCGACGAUCAGAACAAUGGCGUUCUGUAAUUUCCUUCAUUCUGCUUCAUAGUUGCUGACAUCUCAGAGACGCCAUCCUCCUAAUUUUCCUGUCCUUCCAAUAGAACAACAGGAGUAGAGUGGAAUUCUCGGGUGCCAA` is recorded as 0.377.
`GGGAGUUCUACAGUCCGACGAUCUCUGGCCCUCGGUGGCUGCACAGAAGGGCUCUUUCUCUCUGCUGAGCUGGGCCCAGCCCCUCCACGUGAUUUCCAGUGAGUGUAAAUAAUUUUAAAUAACCUCUGGCCCUUGGAAUUCUCGGGUGCCAA` — result for “RBNS enrichment (R)”: 0.312.
`GGGAGUUCUACAGUCCGACGAUCCACAGGUCCCAGCAACUGAUCCUCAGUGGAUGGGUCUGCAGCCAAAGCCUUAAUGGGCUCUCUUUUGAAGGGGAAAGAAAGAAUUUCAAGCUUAUGAUAUCCAACAUUAUUGGAAUUCUCGGGUGCCAA`: “RBNS enrichment (R)” 0.278.

Study 2 — technique: protein binding microarray; molecule type: double-stranded DNA, one strand shown; matrix: in vitro; tested at: not given; relative to: not given; direction: higher = stronger binding
Target: Histone acetyltransferase KAT6A, both winged helices, GST fusion (KAT6A, Homo sapiens, UniProt Q92794, residues 1-181)
Notes: 8-mer, flanks averaged, mean of 2 arrays, mostly near background
Construct (chain): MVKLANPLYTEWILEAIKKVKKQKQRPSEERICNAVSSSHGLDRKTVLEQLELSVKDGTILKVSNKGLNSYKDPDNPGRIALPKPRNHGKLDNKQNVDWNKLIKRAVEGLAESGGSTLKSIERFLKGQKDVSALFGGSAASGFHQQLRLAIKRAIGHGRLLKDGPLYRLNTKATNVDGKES
With `AGTACGGG` the E-score was 0.143.
For `CAACTGTA`, the E-score was -0.0886.
With `TAAACTGA` the E-score was -0.0385.
With `CTAAGTAC` the E-score was -0.0426.
The E-score of `GCGGAAAA` is reported as 0.266.
For `TGACGGCA`, the E-score was 0.253.
`AAATCTAG` gave an E-score of -0.111.

Study 3 — technique: aptamer microarray, sandwich; molecule type: DNA with 2'F-ANA; matrix: in vitro; tested at: 200 nM; together with: Cy3 exosite-II aptamer, 400 nM; direction: higher = stronger binding; oligonucleotide: GGTTGGTGTGGTTGG
Target: Prothrombin, mature alpha-thrombin (F2, Homo sapiens, UniProt P00734)
Notes: whole 15-mer aptamer, many near background
`2'F-ANA at 1 2 4 6 7 8 12 13` — result for “mean fluorescence intensity”: 237 a.u.
Under “mean fluorescence intensity”, `2'F-ANA at 2 4 6 7 8 9 13 14` is recorded as 81 a.u.
`2'F-ANA at 3 4 5 7 8 9 10 11 12 14`: “mean fluorescence intensity” 60.3 a.u.
`2'F-ANA at 1 3 4 7 9 12 13`: “mean fluorescence intensity” 224 a.u.
For `2'F-ANA at 6 8 10 11 12 13 14 15`, “mean fluorescence intensity” read 91.9 a.u.
`2'F-ANA at 1 3 4 5 8 10 12 13 14`: “mean fluorescence intensity” 53.6 a.u.
`2'F-ANA at 3 4 5 9 13 15`: “mean fluorescence intensity” 62.6 a.u.
`2'F-ANA at 10 12 14` — result for “mean fluorescence intensity”: 120 a.u.

Single results of other studies
For `PhoQ, residues 284 288 289 292 302 303 ASVMEA`, the fold induction was 19.1 (PhoP, residues 12 14 15 18 19 STWGI (Escherichia coli, UniProt P23836); Sort-seq, measured: YFP reporter; E. coli; PhoQ-PhoP variant library, together with: 10 µM Mg2+; relative to: high Mg2+ state, higher = stronger signaling).

A few entries again (study 3):
`2'F-ANA at 3 4 5 9 13 15`: “mean fluorescence intensity” 62.6 a.u.
`2'F-ANA at 10 12 14` — result for “mean fluorescence intensity”: 120 a.u.
